Published values gathered from unrelated publications.
Parts stem from different laboratories: compare values within a part only. Changes are numbered by the printed parent chain.

Block 1 — target: CCNE2, cyclin fold, Cln2 fusion (human); technique: yeast growth competition, sequencing; sample: yeast; setting: strong parent motif; relative to: not given; reading: higher = stronger binding
Parent: CDKN1B docking peptide (human); PSACRNLFGPVDH
| Variant | normalised enrichment score |
| --- | --- |
| H13R | 1.32 |
| D12H | 0.709 |
| D12N | 1.75 |
| N6L | 1.11 |

Block 2 — technique: protein binding microarray; form: double-stranded DNA, one strand shown; sample: in vitro; concentration: not given; relative to: not given; reading: higher = stronger binding
Target: Histone acetyltransferase KAT6A, winged helix 1, GST fusion (KAT6A, Homo sapiens, UniProt Q92794, residues 1-85)
Setting: 8-mer, flanks averaged, mean of 2 arrays, mostly near background
Target sequence (chain): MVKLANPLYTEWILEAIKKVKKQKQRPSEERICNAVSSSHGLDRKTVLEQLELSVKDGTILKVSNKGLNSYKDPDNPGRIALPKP
| Strand | E-score |
| --- | --- |
| CATTACAA | -0.0407 |
| CGCCTCGA | 0.147 |
| CAGGGGGA | -0.155 |
| ATTCCGGA | -0.0165 |
| TCAAGCGA | 0.0237 |
| CACCCAGA | -0.228 |

Block 3 — technique: protein-binding microarray; form: double-stranded DNA, one strand shown; sample: in vitro; concentration: not given; reading: higher = stronger binding
Target: Myc proto-oncogene protein, bHLH-zipper, MAX partner unstated (MYC, Homo sapiens, UniProt P01106, residues 368-449)
Chain of UniProt P01106 (368-449, looked up): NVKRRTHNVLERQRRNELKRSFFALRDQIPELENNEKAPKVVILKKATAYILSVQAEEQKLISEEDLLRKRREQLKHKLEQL
Setting: k-mer, scored over probes, only values ≥0.25
| Strand | E-score |
| --- | --- |
| CCTCGCGC | 0.252 |
| GCATGTGA | 0.422 |
| ACCCTCCC | 0.286 |
| ACCCACGA | 0.328 |
| ACGCGCGC | 0.285 |

Single results of other studies
| Substance | target | assay | system | setting | scale | endpoint | result |
| --- | --- | --- | --- | --- | --- | --- | --- |
| PhoQ, residues 284 288 289 292 302 303 SVTLVV | PhoP, residues 12 14 15 18 19 AQALL (Escherichia coli, UniProt P23836) | Sort-seq, item: YFP reporter | E. coli | PhoQ-PhoP variant library, together with: 10 µM Mg2+ | relative to: high Mg2+ state, higher = stronger signaling | fold induction | 14.8 |

Some of these lines once more (block 2):
| Strand | E-score |
| --- | --- |
| ATTCCGGA | -0.0165 |
